Measured values gathered from unrelated publications.
Parts stem from different laboratories: compare values within a part only. Positions count from the first letter of the parent shown.

Set 1 — method: RNA Bind-n-Seq; molecule type: RNA; sample: in vitro; concentration: 365 nM; reference: no-protein control; reading: higher = stronger binding
Target: RNA binding protein fox-1 homolog 2, RRM domain, GST-SBP tag (RBFOX2, Homo sapiens, UniProt O43251-10, residues 100-194)
Setting: natural RNA segment, single round, ends assumed
Target sequence (chain): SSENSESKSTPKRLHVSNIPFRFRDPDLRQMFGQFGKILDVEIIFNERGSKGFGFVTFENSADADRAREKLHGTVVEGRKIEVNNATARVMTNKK
| Strand | RBNS enrichment (R) |
| --- | --- |
| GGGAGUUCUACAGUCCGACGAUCUAGUAGAGAAUACCACUGUGAGUCUUCUCCUUUUCAGAGCCAAACACAAAGCAGCCUGCGUGCAUUCUUUGAGGUGAGCAUUUAAUCACACACUUGAUGACAUUACAAAGUGGAAUUCUCGGGUGCCAA | 0.449 |
| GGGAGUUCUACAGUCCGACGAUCUCAGGCAGAAGAAUCUUUCUUCUCGCCUAGGAUUUCAGCCAUGCGCGCGCUCUCUCUCUUUCUCUCUCUUUUCCUCUCUCUCCCUCUUUCUAGCCUGGGGCUUGAAUUUGUGGAAUUCUCGGGUGCCAA | 0.533 |
| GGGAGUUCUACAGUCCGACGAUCGAAAUCACAGGCAUUGGGCUCUGUUUUGACACCAUUCAUUGGACUGCGGGACAGUCAUUCUUUACGUUCUCUCUUGAGCUGGUGAGAGAGGAGGAAGAGGGAAGUCAAGAUGGAAUUCUCGGGUGCCAA | 0.923 |
| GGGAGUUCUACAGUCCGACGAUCCCUCACAAUGUUGGGAUUACAGGUAUAAGCCACUGCACACGGCCUUACUAUGCUAUCAAUUCCAUAUAUGGAAAGGUGUUUUCCCUUUCAGAGCUCUUUAAAGCUCUGCAUGGAAUUCUCGGGUGCCAA | 0.599 |
| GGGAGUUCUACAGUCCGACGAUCACCAUACCUUUUUGCACUAUGGGCACUAACCACCCUGAAACUUCCUGCGGUAGCUCCCUCCCUUCAGAGUUACAUCAUUAUCCUGACUCUGUGUAGGUAAAUUUCCGUGAUGGAAUUCUCGGGUGCCAA | 0.976 |
| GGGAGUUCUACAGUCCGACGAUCUGUCUCCAUCCCCAUGCCUUGUUCUAACUUGCAUACUUGUCCUUUCUGCUCGAAGCUGUCACUUCCUUCUAAGGAUUUACAGAGGCCUAGGGCCCUAACCUUCAGGGGUGUGGAAUUCUCGGGUGCCAA | 0.791 |
| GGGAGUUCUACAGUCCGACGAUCGAGAAGAAACUACUUUGGAGUUUUUGAAAAAGCAAGCCAGAAAAUCCACUGAGCCUUCAGCAGAAAUUCCUUUUCUAGACAUUAAAACCACUUAACAUCCGUACUGUUUGUGGAAUUCUCGGGUGCCAA | 0.433 |
| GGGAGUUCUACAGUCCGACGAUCGUGUUGACCUGCGUUACUGGAACUUGGAGCUACCCUGUUUGGUUACCAGUGGACUGUUAGAAAGUAUUUCAGAUACGAGCAUCUUACAGGGCAUUCCAUCCCUAGUUCUCUGGAAUUCUCGGGUGCCAA | 0.84 |
| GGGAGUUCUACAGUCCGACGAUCUAACAGGUACCACUUCUGAUCACCCUGUACAUACAUGAGCCGAAAGGCACAAUCACUGUUUCAGAUUUAAAAUUAUUAGUGUGUUUGUUUGGUCCAGAAACUGAGACAAUUGGAAUUCUCGGGUGCCAA | 0.232 |
| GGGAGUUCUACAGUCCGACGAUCAAAUCAUUGAAGGUCUGGAUCCCUUUCUCUGAAUGGAGAGAUUGAGAGGGAUGUCGGGCAGUUCCCAUUAGAUUUAGUGGCCUUCAUGUUAUUCAGAAUUGUUUUGGUGAUGGAAUUCUCGGGUGCCAA | 1.37 |
| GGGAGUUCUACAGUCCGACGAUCGCCUGGACUUGGCCCCUGCCACCUCCUGCCUCAGGUGUCCGCUAUCCACCAAAAGGGCUCCCUGAGGGUCUGGGCAAGGGACCUGCUUCUAUUAGCCCUUCUCCAUGGCCUGGAAUUCUCGGGUGCCAA | 0.408 |
| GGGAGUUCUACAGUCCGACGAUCAUGUGUGUGAGUAUGUGUGUAAAGACUAUGUGGCCAAAAUACCAUCUGGCCAGACGGGCCCACCCACUGACUGUCUGGUCUCAUUCUUUUCAAUCAAGAGGGCUGUGUUGUGGAAUUCUCGGGUGCCAA | 0.31 |

Set 2 — method: DHFR PCA, deep sequencing; sample: yeast; together with: (+)-ABA 2500 µM; reference: wild-type fitted maximum; reading: higher = stronger binding
Target: ABI1, truncated, D143A, DHFR fusion (Arabidopsis thaliana)
Setting: methotrexate growth selection, single substitutions
Starting sequence: PYL1, truncated, DHFR fusion (Arabidopsis thaliana); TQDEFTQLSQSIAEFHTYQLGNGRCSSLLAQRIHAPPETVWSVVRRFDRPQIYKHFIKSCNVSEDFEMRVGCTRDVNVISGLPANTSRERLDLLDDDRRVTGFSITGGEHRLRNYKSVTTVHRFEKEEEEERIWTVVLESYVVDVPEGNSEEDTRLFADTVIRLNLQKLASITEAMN
| Variant | relative binding score [%] |
| --- | --- |
| V136M | 91.2 |
| T17C | 102 |
| E147F | 90.3 |
| R32S | 93.4 |
| W134I | 111 |
| E38Y | 76.9 |
| V62P | 85.5 |
| N61M | 96.1 |
| H122G | 86.4 |
| G107A | 98.2 |
| F47T | -5.17 |
| A13V | 102 |
| H16G | 45.3 |
| L164T | 99.1 |
| L82N | 49 |
| N61T | 99.3 |
| V137E | -18.7 |
| S59F | 90.1 |
| E64A | 94.4 |
| H16K | 48.5 |
| E14T | 86.5 |
| I52A | 97.8 |

Set 3 — method: protein binding microarray; molecule type: double-stranded DNA, one strand shown; sample: in vitro; concentration: not given; reference: not given; reading: higher = stronger binding
Target: Histone acetyltransferase KAT6A, winged helix 1, GST fusion (KAT6A, Homo sapiens, UniProt Q92794, residues 1-85)
Setting: 8-mer, flanks averaged, mean of 2 arrays, mostly near background
Target sequence (chain): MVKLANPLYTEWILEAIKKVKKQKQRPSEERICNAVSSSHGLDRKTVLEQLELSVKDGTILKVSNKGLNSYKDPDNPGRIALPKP
| Strand | E-score |
| --- | --- |
| ATAAATGC | -0.0682 |
| CGAAACGC | 0.16 |
| CGTCCGAC | 0.341 |
| ACTATGTA | -0.191 |
| ATTTAAAA | 0.00103 |
| GCACCTCA | -0.114 |
| AGGCGCCG | 0.401 |
| ACACCAGT | -0.288 |
| AATCCTCT | -0.157 |
| ATCATAGA | -0.273 |
| CTGAGAAG | -0.14 |
| CGTTGGCA | 0.0362 |
| ACATCGAG | -0.143 |
| TCAAAGCA | -0.221 |
| GAGTGCAA | -0.267 |
| AGAACGCA | -0.101 |
| GTCCACGA | 0.087 |
| CTTGACAA | -0.0843 |
| ACGGGGCA | 0.286 |
| CAGGGTCC | -0.107 |
| ATGTGGGC | -0.00611 |

Set 4 — target: CRIPT, C-terminal peptide; method: DHFR complementation, deep sequencing; sample: yeast; reference: wild type; reading: higher = weaker binding
Setting: single substitutions, model-inferred values
Starting sequence: ERBIN, PDZ domain 1 (human); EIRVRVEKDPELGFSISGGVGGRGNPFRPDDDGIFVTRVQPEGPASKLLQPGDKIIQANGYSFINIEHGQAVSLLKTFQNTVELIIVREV; partner TKNYKQTSV
| Variant | binding free energy change |
| --- | --- |
| E1Q | -0.0259 kcal/mol |
| P44Y | 0.705 kcal/mol |
| E7F | 0.088 kcal/mol |
| L49A | -0.208 kcal/mol |
| F63L | -0.207 kcal/mol |
| T37W | 0.936 kcal/mol |
| I85T | -0.0353 kcal/mol |
| G60Q | 0.153 kcal/mol |
| K54N | 0.272 kcal/mol |
| L12R | 0.992 kcal/mol |
| I16P | 0.402 kcal/mol |
| A71W | 1.43 kcal/mol |
| K8S | 0.88 kcal/mol |
| E11Y | -0.42 kcal/mol |

Set 5 — target: CCNB2, cyclin fold, Cln2 fusion (human); method: yeast growth competition, sequencing; sample: yeast; setting: weak parent motif; reference: not given; reading: higher = stronger binding
Starting sequence: INSM1 docking peptide (human); PKAIRKLHFEDEV
| Variant | normalised enrichment score |
| --- | --- |
| PKAIRKLHFEDIV [E12I] | 0.437 |
| PKAIRKLHFEDNV [E12N] | 0.29 |
| PKAIGKLHFEDEV [R5G] | -0.00214 |
| PKAIRGLHFEDEV [K6G] | -0.116 |
| PCAIRKLHFEDEV [K2C] | 0.316 |
| PKAIRKLGFEDEV [H8G] | 0.227 |
| PKAIRKLHFHDEV [E10H] | 0.0784 |
| PKAIYKLHFEDEV [R5Y] | 0.288 |
| PKIIRKLHFEDEV [A3I] | 1.33 |
| PKKIRKLHFEDEV [A3K] | 0.774 |
| PKAIRKLHFEDVV [E12V] | 0.215 |
| PKAIRKLHFEDPV [E12P] | 0.303 |
| PKAIRKLHFEREV [D11R] | 0.378 |
| PKAIRKCHFEDEV [L7C] | 0.641 |
| PDAIRKLHFEDEV [K2D] | 0.189 |
| PKAIRKLIFEDEV [H8I] | 0.259 |
| PKAIRKLHFIDEV [E10I] | 0.275 |
| PKAIRKLHFTDEV [E10T] | 0.322 |
| PSAIRKLHFEDEV [K2S] | 0.736 |
| PKAIRKLHFELEV [D11L] | 0.38 |
| PKAIRKLLFEDEV [H8L] | 0.491 |
| PKAIRKLDFEDEV [H8D] | 0.297 |
| PKAIRKLHKEDEV [F9K] | -0.182 |
| PKAIRKLHWEDEV [F9W] | 0.895 |
| PKANRKLHFEDEV [I4N] | 0.208 |

Excerpt of the above (set 5):
| Variant | normalised enrichment score |
| --- | --- |
| PKAIRKLGFEDEV [H8G] | 0.227 |
| PKAIRKLHFHDEV [E10H] | 0.0784 |
| PKAIYKLHFEDEV [R5Y] | 0.288 |
| PKIIRKLHFEDEV [A3I] | 1.33 |
| PKKIRKLHFEDEV [A3K] | 0.774 |
| PKAIRKLHFEDVV [E12V] | 0.215 |
| PKAIRKLHFEDPV [E12P] | 0.303 |
| PKAIRKLHFEREV [D11R] | 0.378 |
| PKAIRKCHFEDEV [L7C] | 0.641 |
| PDAIRKLHFEDEV [K2D] | 0.189 |
| PKAIRKLIFEDEV [H8I] | 0.259 |
| PKAIRKLHFIDEV [E10I] | 0.275 |
| PKAIRKLHFTDEV [E10T] | 0.322 |
| PSAIRKLHFEDEV [K2S] | 0.736 |
| PKAIRKLHFELEV [D11L] | 0.38 |
| PKAIRKLLFEDEV [H8L] | 0.491 |
